Experimental data pooled from the literature.
A part holds a random share of what one study measured. Positions count from the first letter of the parent shown.

Study 1 — technique: RNA Bind-n-Seq; form: RNA; matrix: in vitro; concentration: 365 nM; reference: no-protein control; reading: higher = stronger binding
Target: RNA binding protein fox-1 homolog 2, RRM domain, GST-SBP tag (RBFOX2, Homo sapiens, UniProt O43251-10, residues 100-194)
Setting: natural RNA segment, single round, ends assumed
Target sequence (chain): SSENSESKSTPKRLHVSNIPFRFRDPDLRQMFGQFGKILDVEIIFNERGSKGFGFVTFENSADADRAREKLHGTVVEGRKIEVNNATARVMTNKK
Sequence	RBNS enrichment (R)
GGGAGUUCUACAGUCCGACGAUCCCAGGUGGGCUGGGUGGAAGGACCCUCAGCCACCAAGAACUGACGCCCUCAUGGCCCUAGACUAUGGGGUUGAAAACUCAUAGCAGUCAGGUUUGUUUACCAUCUCUCCGUGGAAUUCUCGGGUGCCAA	0.334
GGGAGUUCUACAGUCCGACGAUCUGCCACCUUGUACAAAGCCAGCUGACCAGCCCCCGCCUCCUCACCACACCCCAGCUCCUAUCUUCUGUACCCGAGUGUGUCUGAUGCUCCGUGCUGUCCAGGAAUUGUUUUGGAAUUCUCGGGUGCCAA	1.38
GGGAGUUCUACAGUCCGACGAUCUCUGUCCUGAAAGCUUUGCCUCUUUCUUGGCAAAGUUUCUGGUAUGGUCAAGCUUGUAAAUAACUUUUUUUACAUUUUAAUCUUUUCCAUUAAUUAAGAGGUUGAAAAGAUGGAAUUCUCGGGUGCCAA	0.317
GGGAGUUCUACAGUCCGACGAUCUUAGGCAGACGUACUUGUCUCCACUCCCCACUCCAUCUCAGCCCAACUCCAGACACCCUAGGGCUGACCAGCUCCAUUGAGACCCUGUUAUUUCUCUGCUUUUCUCUUUCUGGAAUUCUCGGGUGCCAA	0.948
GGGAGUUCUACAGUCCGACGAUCCCCCCUGCCUGUCCCCAAAUUGAAGAUCCUUCCUUGCCUGUGGCUUGAUGCGGGGCGGGUAAAGGGUAUUUUAACUUAGGGGUAGUUCCUGCUGUGAGUGGUUACAGCUGUGGAAUUCUCGGGUGCCAA	0.914
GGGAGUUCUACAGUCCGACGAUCGAAUGAAAUCCUGGAACUCAGAGUUAAAUUAAGAACAAGGCAUCCCACAGAACCUAAUCUGAACAAUCCCCGAUGAUUCCCUCUGCUUUUUGAAUGCUUCCAAGACUUAUUGGAAUUCUCGGGUGCCAA	1.44
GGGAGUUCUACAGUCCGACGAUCAGGUGCCAGACUUUCUGUUCUGUCUGCCAUGGGUUUGUCCAGCUCAGGUAGCUCUAGGAGCACCAUCCUGCCCUAGCAGAGCCCAGGCCUUGCCCUCAUGAAGCAUCAUUUGGAAUUCUCGGGUGCCAA	0.278
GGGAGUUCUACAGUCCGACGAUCUGUUAACCUUCAUGUGACAAAACAAGGAUAUAUUCUUGCUGCUACGACAUGCUUUUGACUCAGUAUGACUGGAAGAGUUUUGGACCACUGAAUCCUGUCUUAAUUAAAAGUGGAAUUCUCGGGUGCCAA	0.262
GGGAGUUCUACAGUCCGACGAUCGAUGUCAGGGGCAACGGGGUAUCUUAGAAGCCUUAAAUGAGAGCUAAUAUAAUCCAGACAGCAAUGGUGUUAGUAUUUUUGGUCUGUGUACCCACGUGCCCAUGUAUAUGUGGAAUUCUCGGGUGCCAA	0.518
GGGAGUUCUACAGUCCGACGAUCCAUAAUGAUGUGUCUGGCUCAAGCAGCAAUGCUGUCCCUGCUCAGAACUGUGGUCUCUGUGGAGAACCUAGUACAGAGCCUGAGCAAGGCAAUGGACCACCUCCUUUUCCUGGAAUUCUCGGGUGCCAA	0.199
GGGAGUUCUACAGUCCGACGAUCCCUGACUUCACUCAUUUGCUUUCUUUUCCUUGGAACCCUGCCUAAUAACUUCUGUGGGAGCUCAUCCCCCAAUCUUCGGUACUCUGCUUCCACAGUUGGAAAGUGGAACUUGGAAUUCUCGGGUGCCAA	0.696
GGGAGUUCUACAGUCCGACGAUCCUGAUGAUGCCACUACUUGUCACAUUGUGGUCCUGAGGCACACAGGUAAUGGGGCCACCUGCUUGACACAUUGUGACGGAACCGACACCAAAGCUGAGGUCCCCUUGAUCUGGAAUUCUCGGGUGCCAA	0.67

Study 2 — technique: DHFR PCA, deep sequencing; matrix: yeast; together with: (+)-ABA 0.0091 µM; reference: wild-type fitted maximum; reading: higher = stronger binding
Target: ABI1, truncated, D143A, DHFR fusion (Arabidopsis thaliana)
Setting: methotrexate growth selection, single substitutions
Starting sequence: PYL1, truncated, DHFR fusion (Arabidopsis thaliana); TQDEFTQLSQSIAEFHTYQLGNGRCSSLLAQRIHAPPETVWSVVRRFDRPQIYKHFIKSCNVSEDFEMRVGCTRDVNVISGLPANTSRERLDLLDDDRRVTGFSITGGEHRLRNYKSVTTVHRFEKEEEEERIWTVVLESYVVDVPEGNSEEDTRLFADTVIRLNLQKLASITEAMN
Variant	relative binding score
Y115C	1.4%
T160S	5.39%
D95A	-6.58%
V76A	-2.3%
R111H	14.7%
T119M	0.47%
T86C	28.6%
M68S	0.323%
R49V	3.25%
F124Q	5.96%
T173Q	-1.92%
Y141M	-3.79%

Study 3 — target: CCND2, cyclin fold, Cln2 fusion (human); technique: yeast growth competition, sequencing; matrix: yeast; setting: weak parent motif; reference: not given; reading: higher = stronger binding
Starting sequence: CDKN1B docking peptide (human); PSACRNLFGPVDH; partner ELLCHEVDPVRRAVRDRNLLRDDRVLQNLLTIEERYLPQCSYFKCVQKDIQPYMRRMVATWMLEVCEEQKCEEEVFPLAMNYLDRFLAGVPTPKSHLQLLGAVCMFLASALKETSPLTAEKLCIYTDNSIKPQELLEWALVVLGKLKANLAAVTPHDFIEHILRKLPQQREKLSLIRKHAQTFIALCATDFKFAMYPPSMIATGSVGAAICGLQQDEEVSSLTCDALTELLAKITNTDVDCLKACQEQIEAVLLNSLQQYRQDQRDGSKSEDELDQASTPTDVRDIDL
Variant	normalised enrichment score
A3C	-0.0175
S2E	0.174
A3D	-0.129
P1D	-0.232
L7W	-0.0168
N6F	-0.0889
V11T	0.192
N6T	0.0159
V11P	0.178
H13F	0.226
S2G	0.204
V11W	0.415
P1K	0.413
S2F	0.335
G9E	0.245
H13L	0.099
N6D	0.0837
G9M	0.229
L7Q	0.0495
G9L	0.272
N6Y	-0.249

Study 4 — technique: EMSA with sequencing; form: double-stranded DNA, one strand shown; matrix: in vitro; concentration: 10 and 20 nM; reference: negative control set to 0; reading: higher = stronger binding
Target: Hepatocyte nuclear factor 3-alpha (Foxa1, Mus musculus, UniProt P35582, residues 1-468, full length assumed)
UniProt P35582, sequence (whole entry, looked up): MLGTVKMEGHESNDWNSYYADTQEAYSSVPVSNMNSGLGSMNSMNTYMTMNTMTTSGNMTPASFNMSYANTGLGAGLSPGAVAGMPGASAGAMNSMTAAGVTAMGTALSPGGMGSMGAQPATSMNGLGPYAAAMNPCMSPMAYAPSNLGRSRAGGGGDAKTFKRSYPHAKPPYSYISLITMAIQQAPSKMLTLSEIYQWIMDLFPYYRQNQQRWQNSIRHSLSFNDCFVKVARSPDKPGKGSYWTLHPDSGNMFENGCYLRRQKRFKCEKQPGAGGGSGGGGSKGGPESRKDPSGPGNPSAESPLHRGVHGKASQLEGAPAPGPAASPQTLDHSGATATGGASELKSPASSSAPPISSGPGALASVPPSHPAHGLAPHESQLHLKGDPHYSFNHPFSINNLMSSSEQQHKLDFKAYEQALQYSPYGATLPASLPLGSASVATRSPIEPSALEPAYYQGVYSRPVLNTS
Setting: whole designed probe, mean of two concentrations, ends assumed
Sequence	normalised bound fraction [ratio]
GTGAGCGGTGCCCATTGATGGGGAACTTTGCTCCCCACACCCATTGCCTGCCACAAAAGGGTATTTTGCCAACTTCAGTATGTAATCTTTTAGGGATATAGATGACGTGATCACATGTCAGATTACATAGTTAATAATTTACGCATACACATTTAAACTTACTCATATAAAGTCATACACAATTTAGAATCATTACTTTTTGCTATTCTTACATTTCAGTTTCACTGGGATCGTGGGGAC	-0.0171
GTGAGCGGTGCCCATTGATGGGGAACCCTAATTAATGCTTCTCACACAGCCTTACAAAATATTAGTCACTTAATTATTAACCACATTCATTGGGCTGCACTAGTTGAAAAAGATGTCTTGTTTACTTAGTCAAAGCGCTGTCTCTGTGCAATGGCATTGATGGTGAAATTGATCAGAGTCTACGTTTGAATGAGAGAAGCTGAGGGAGACATTTCAGAATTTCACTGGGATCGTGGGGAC	0.493
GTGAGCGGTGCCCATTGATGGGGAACAGATGTAAAACAAAATGGATGTAGACAGCCGATTGTAGACGTAAAGCAAAATGGGTGTAGACAGCTAATTGACTCAACCATACTCTGGGCATGTATTTACTCAATGCTACAATGGGCTGAGTGTTGCTCGAGGTGCTGGAGAGATTTCTGCCAAGAAAAGAGAGAAAAACCCCTGTCCTCCCACATCTGACGCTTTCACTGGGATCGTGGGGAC	0.28
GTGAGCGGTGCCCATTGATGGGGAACACTATCATCCATTTTCAGAAAGAAAAATTTATGTAATGATAATGATAACCAAGGAATTATAACTAGCGGATAAAGTGAAAGTTCAGATGTCAAAGTAATCTGAGACTTCTTTGAGTTGATGTAATTCCTGAGAAAAAAATCATTTTACTATATAATAGAGATTATATAACAACTTTAATTTTCATCACAAGAGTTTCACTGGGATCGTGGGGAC	-0.0416
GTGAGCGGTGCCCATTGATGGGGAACTCCCCCAAAACGTTATTGCTTGCACTGTGGGACCTGATCCAGTGGGCTGTCATGGACGAACGGCAACACCCACTGGGACCCTATTCCCTTTGTGTAAACAGAGCAGCTCCAAACCGCGGCCCTCCTGGGCCCCCTAGCGGCAGCAGCGATGGGCACAACGTTCAAAGATCCCTCAAAGCCCTCGGGGAGTGGCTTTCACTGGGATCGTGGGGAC	0.446
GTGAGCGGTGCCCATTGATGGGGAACTGTATCCATCTGGGCAGTATCTTCTCTGGGCCTGGCCTGTCATAGGTGCTTCAGGTTTCCCCATTTGAACCAGATACCAGTCGGGTTACCGGATGTTTGCTTAAAATGAGTCATAATTCCGGCTTCCTGCTTGTGCTGCTTCCAGCTAGGACTGATCGAATCAGTCTGGATTTTCCTTGGGGTGATCCGCAGGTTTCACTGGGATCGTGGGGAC	0.121
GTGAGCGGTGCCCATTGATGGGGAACATCTTCCCCCTCTTCCTTGCCCCACCAGCTCACCTTCCCGGGTTATTTGCAGATAGGAAAATAAATAAAGCCGGCATTCGTTAACCCTCTTCTGGCGCAAACTGCTGTTTGCTCTGGATGAATCATGGTCCTTTGGCGACGCCAGGCTCCGGGAGAGCAAAGCACCGTGTCAGGGCCATGATCGGGGCGGCTCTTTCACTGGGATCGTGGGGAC	0.327
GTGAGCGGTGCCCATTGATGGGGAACCTGCAACCATATTTTGAAGGCTATGAGCCTTTCCTTTTTCCTCAACACTGTATCCCCTTCCTGGCAATGTGCCTGGCACAGAAGAAATGCTCAGTAATTTTTGGCTGAACAAACAGATGAATGTCTATAGCCCACTTTGCTGGGAGAAGTGGAAGGAGGAGAGATTCCATTGCATATTAGAATTCTGTGTCTTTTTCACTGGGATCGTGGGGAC	0.225

Study 5 — technique: protein-binding microarray; form: double-stranded DNA, one strand shown; matrix: in vitro; concentration: 0.8 µM; setting: whole 60-bp probe, no competitor; reading: higher = stronger binding
Target: Centromere-binding protein 1, full length, N-terminal tag (CBF1, Saccharomyces cerevisiae, UniProt P17106, residues 1-351)
UniProt P17106, sequence (whole entry, looked up): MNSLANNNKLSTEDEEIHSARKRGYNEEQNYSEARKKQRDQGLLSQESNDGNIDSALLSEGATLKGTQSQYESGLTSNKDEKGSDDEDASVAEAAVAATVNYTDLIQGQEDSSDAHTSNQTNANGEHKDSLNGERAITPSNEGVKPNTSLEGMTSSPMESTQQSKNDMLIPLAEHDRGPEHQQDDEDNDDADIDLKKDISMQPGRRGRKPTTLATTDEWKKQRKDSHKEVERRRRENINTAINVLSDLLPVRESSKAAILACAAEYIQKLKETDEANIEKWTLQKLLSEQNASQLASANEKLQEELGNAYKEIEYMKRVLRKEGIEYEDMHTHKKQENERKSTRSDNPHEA
Sequence	fluorescence intensity
GAATTTTATCAGAGTCACGTGACATATATCACTTAGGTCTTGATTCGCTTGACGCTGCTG	55700 a.u.
TGTACGAAGCTATGTCACGTGTTTATAGTAGTTAGGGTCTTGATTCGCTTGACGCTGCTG	16100 a.u.
GAAAAAACATAAAGCAACGTGGAATATGTCACATAGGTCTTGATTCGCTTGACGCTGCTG	536 a.u.
CTAACAAAGTTGGGTCACGTTTCTCGCAATTATTTCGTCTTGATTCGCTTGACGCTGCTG	3930 a.u.
GAAATCTTCAATGGACCCGTGCTTTGTAACCCGTAGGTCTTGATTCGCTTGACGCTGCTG	646 a.u.
GAAACACAGGTTGCGCACATGGGAAGTGCACTATAGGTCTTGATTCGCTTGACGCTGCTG	573 a.u.
CTAACGCTTTTCGATCACATCGAATCCCTTCGGTTCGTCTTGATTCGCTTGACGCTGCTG	530 a.u.
CTAGACGACGACGACCACGAAACACCTTTGATTTTCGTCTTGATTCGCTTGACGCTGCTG	518 a.u.
GAACGCGCCAGGCATGGCGTGAACCTAACCAATTAGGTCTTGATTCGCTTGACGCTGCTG	478 a.u.
CTATGTAGCCTTTGTTACGTGAATAACTTACTTTTCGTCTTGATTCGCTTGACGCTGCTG	520 a.u.
CCTAACTACTATATGCACGTTCTATAGCTTCGTACAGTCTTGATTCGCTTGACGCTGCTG	587 a.u.
GAACAGTTACTAGCGCACGAGACAAGGCAAAGCTAGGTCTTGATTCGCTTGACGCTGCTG	758 a.u.
GAACATATAGTCAGTCATGAGAATATATATTTATAGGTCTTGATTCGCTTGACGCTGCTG	611 a.u.
CTAGCAAGAACACGTCACCGCATTAATAACCAATTCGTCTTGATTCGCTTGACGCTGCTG	534 a.u.
GAATTCTGTTCTCTTCACATGCGTTAGGTATAGTAGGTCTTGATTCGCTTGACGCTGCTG	600 a.u.
CTAGCTTTAATGAAACATGTGAAGTGTTTCGCATTCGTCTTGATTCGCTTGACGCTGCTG	650 a.u.

A few entries again (study 3):
Variant	normalised enrichment score
L7Q	0.0495
P1D	-0.232
N6D	0.0837
N6T	0.0159
